Results of several laboratories.
Protocols differ between the studies behind these lines. Numbers after ± are the reported error.

For `CC(=C(c1ccc(O)cc1)c1ccc(Cl)cc1)c1ccc(Cl)cc1`, the GI50 was 0.6 µM (MDA-MB-435; cell growth or viability, SRB).
`COC1CN([C@H]2CC[C@H]([C@@]3(C)Oc4c(Cl)cc(C(=O)NCc5c(SC)cc(C)[nH]c5=O)c(C)c4O3)CC2)C1` gave a GI50 of > 1 µM (J82; cell growth or viability, ATP luminescence; 12 days).
`C[n+]1ccc(/C=N/NC(=O)c2cncc(C(=O)N/N=C/c3cc[n+](C)c4ccccc34)n2)c2ccccc21` gave a GI50 of 64.5 ± 2.9 µM (A549 cisplatin-resistant; CellTiter-Glo; 96 h).
`CCN(CC)c1ccc(-c2csc3c(C(=O)c4ccc(OC)cc4)cc(=O)[nH]c23)cc1` gave a GI50 of < 20 µM (most of six cancer lines; SRB).
The GI50 of `C1=[N+]2CCCC[N+]3=Cc4ccc5[n]4[Au-]23[n]2c1ccc2-c1nc2ccccc2nc1-5.F[P-](F)(F)(F)(F)F` is reported as 5 µM (breast cancer cell lines; NCI60 panel mean).
With `NC12CCN(C(=O)c3cc(-c4cccc5c4CCC5)no3)CC1C2` (centres unmarked) the GI50 was ~6 µM (LS180; cell growth or viability, MTT; 48 h).
With `CCCC(C)NC(=O)C(Nc1ccccc1C(=O)c1ccccc1)c1cn(C)c2ccccc12` (centres unmarked) the GI50 was 6.9 µM (MIA; cell growth or viability, MTT; 72 h).
With `CC/C=C\C/C=C\C/C=C\C/C=C\C/C=C\C/C=C\CCC(=O)Nc1ccn(C2OC(CO)C(O)C2(F)F)c(=O)n1` (centres unmarked) the GI50 was 0.311 µM (MDA-MB-435; cell growth or viability, SRB).
`C[n+]1cc(NC(=O)c2ccc3ccc4ccc(C(=O)Nc5cc6ccccc6[n+](C)c5)nc4c3n2)cc2ccccc21` gave a GI50 of 6.6 ± 0.6 µM (A549 cisplatin-resistant; CellTiter-Glo; 96 h).
The GI50 of `CC(Cc1ccc(Cl)cc1)=C(c1ccc(Cl)cc1)c1ccc(OCCN(C)C)cc1` is reported as 3.47 µM (SNB-75; cell growth or viability, SRB).
The GI50 of `CCN(CC)c1ccc(-c2csc3c(C(=O)c4ccc(C)cc4)cc(=O)[nH]c23)cc1` is reported as < 20 µM (most of six cancer lines; SRB).

Repeated from above:
For `CC(=C(c1ccc(O)cc1)c1ccc(Cl)cc1)c1ccc(Cl)cc1`, the GI50 was 0.6 µM (MDA-MB-435; cell growth or viability, SRB).
The GI50 of `C1=[N+]2CCCC[N+]3=Cc4ccc5[n]4[Au-]23[n]2c1ccc2-c1nc2ccccc2nc1-5.F[P-](F)(F)(F)(F)F` is reported as 5 µM (breast cancer cell lines; NCI60 panel mean).
